Published values pooled from the literature.
Every numbered part comes from another study and shows a few of its results, in no order.
Chain of UniProt P37173 (whole entry, looked up): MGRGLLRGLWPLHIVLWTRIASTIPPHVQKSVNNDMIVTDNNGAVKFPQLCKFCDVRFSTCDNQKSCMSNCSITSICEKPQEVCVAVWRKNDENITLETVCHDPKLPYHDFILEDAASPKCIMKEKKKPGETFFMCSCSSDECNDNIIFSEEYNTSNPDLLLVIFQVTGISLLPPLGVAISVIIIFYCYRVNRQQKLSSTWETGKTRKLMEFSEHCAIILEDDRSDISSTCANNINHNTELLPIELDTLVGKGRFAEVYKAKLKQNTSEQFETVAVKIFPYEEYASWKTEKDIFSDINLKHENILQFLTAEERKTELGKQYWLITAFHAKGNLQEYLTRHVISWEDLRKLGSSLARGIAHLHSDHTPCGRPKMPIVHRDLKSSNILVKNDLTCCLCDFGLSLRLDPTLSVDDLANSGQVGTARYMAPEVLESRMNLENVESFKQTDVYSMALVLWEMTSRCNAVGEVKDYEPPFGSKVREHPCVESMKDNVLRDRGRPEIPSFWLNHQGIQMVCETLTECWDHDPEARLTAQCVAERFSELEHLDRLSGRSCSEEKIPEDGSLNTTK
Chain of UniProt O75385 (whole entry, looked up): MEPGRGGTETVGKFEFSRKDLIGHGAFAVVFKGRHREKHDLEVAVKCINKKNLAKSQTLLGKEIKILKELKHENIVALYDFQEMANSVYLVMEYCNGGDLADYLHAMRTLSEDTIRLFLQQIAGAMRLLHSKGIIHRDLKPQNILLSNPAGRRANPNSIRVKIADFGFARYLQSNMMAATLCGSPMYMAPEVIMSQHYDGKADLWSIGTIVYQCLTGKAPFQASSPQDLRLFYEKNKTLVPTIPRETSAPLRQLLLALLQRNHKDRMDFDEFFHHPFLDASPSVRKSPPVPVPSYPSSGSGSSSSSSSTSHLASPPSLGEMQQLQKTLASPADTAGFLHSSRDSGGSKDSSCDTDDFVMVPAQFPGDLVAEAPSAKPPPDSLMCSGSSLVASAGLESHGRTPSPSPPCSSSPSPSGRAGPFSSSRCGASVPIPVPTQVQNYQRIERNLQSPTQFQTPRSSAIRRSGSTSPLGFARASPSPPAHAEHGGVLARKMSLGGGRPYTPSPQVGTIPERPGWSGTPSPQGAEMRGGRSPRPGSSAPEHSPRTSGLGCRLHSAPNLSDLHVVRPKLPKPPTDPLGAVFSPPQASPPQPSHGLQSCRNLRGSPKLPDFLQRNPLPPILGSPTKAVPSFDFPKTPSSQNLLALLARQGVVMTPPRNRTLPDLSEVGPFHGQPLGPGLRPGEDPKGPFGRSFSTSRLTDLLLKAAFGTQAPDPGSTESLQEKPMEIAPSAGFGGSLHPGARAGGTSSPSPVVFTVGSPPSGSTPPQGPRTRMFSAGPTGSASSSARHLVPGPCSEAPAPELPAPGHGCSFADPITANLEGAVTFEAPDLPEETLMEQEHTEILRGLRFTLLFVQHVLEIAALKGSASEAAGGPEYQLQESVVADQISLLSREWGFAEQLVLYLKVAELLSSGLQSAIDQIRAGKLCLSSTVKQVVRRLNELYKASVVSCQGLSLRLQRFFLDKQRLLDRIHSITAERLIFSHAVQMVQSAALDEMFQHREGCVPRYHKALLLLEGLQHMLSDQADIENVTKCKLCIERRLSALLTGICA
Chain of UniProt Q2M2I8 (whole entry, looked up): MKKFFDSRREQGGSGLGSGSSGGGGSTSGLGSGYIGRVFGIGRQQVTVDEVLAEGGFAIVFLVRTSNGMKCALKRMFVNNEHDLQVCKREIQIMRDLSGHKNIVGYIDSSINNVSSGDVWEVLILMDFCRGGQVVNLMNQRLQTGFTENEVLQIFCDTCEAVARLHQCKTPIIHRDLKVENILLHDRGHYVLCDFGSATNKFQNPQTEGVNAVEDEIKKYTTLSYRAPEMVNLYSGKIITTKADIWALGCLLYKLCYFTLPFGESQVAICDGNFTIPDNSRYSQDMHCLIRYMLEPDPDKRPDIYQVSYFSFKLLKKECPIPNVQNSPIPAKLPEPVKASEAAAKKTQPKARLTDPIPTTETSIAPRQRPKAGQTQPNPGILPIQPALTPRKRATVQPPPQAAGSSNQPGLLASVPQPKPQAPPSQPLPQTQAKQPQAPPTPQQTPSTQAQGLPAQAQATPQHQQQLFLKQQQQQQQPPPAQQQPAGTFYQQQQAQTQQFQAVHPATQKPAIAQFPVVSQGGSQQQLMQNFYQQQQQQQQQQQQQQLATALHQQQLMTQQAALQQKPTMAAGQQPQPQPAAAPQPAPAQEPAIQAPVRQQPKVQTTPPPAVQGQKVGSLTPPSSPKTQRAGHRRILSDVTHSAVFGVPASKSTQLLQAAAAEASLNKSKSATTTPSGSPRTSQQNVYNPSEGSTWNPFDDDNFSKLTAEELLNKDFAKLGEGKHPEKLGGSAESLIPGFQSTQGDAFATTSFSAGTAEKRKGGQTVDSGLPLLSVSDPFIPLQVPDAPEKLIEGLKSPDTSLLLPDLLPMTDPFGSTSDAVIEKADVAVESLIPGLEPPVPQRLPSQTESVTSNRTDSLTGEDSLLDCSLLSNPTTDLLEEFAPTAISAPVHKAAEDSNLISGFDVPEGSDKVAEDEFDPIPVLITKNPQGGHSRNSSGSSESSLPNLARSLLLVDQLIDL
Chain of UniProt Q08345 (whole entry, looked up): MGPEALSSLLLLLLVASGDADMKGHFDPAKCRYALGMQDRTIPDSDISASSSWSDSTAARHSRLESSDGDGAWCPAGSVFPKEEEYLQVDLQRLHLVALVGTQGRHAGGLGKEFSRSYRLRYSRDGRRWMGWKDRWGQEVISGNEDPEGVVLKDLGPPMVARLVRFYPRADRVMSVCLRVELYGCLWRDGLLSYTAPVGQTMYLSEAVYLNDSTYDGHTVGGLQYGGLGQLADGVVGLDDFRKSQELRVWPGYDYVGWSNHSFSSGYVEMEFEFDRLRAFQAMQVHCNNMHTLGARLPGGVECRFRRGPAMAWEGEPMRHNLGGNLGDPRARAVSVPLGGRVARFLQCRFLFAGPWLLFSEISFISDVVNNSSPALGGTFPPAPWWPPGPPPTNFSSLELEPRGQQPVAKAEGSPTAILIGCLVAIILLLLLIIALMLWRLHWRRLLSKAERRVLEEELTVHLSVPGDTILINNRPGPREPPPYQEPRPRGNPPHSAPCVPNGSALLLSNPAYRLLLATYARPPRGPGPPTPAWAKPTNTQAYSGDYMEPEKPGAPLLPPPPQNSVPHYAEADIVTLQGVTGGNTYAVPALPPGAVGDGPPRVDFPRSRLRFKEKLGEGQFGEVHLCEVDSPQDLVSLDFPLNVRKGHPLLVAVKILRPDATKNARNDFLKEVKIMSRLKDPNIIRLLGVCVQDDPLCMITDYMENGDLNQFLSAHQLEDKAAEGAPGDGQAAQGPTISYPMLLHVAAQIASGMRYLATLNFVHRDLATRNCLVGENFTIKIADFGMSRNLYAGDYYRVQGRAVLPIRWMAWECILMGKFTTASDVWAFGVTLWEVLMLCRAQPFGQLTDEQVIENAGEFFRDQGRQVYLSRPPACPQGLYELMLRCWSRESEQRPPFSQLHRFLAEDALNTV
Chain of UniProt Q16659 (whole entry, looked up): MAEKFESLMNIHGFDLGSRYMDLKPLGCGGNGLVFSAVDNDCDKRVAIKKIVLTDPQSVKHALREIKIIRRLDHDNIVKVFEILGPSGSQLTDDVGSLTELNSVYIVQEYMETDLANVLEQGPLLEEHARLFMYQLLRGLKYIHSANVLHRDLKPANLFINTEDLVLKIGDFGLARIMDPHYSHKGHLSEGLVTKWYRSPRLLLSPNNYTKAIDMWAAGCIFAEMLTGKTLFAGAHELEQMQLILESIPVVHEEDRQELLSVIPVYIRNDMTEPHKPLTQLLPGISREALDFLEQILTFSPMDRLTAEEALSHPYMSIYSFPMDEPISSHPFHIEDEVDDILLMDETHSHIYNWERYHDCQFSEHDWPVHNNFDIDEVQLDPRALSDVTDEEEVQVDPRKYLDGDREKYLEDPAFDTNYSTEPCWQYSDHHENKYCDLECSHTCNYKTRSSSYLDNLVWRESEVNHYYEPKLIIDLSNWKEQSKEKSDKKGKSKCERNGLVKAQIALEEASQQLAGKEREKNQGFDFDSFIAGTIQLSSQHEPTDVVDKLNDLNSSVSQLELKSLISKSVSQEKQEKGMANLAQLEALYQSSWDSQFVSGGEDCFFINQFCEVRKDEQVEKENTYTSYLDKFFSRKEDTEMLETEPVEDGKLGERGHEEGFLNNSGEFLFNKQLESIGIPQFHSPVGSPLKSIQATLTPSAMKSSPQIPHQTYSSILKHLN
Chain of UniProt P11802 (whole entry, looked up): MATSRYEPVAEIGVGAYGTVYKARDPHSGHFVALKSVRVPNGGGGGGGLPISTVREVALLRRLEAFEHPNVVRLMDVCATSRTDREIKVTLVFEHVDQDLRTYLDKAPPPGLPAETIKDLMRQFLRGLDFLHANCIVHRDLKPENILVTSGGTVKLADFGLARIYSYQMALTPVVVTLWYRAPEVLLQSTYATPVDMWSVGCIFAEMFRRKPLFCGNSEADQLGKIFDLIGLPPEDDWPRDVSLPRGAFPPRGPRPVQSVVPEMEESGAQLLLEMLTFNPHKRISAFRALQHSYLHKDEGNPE

Series 1 — method: RNA Bind-n-Seq; form: RNA; sample: in vitro; concentration: 365 nM; reference: no-protein control; direction: higher = stronger binding
Target: RNA binding protein fox-1 homolog 2, RRM domain, GST-SBP tag (RBFOX2, Homo sapiens, UniProt O43251-10, residues 100-194)
Setting: natural RNA segment, single round, ends assumed
Residues (chain): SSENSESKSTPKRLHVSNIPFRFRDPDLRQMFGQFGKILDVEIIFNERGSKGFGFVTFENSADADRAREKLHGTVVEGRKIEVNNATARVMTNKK
| Oligonucleotide | RBNS enrichment (R) |
| --- | --- |
| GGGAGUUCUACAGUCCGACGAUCUUAUUUGGGUCCCAGAUGGAGCCCACCGCGGACUUGCCUUGCAUUCCUCAGGCCAGGCAAGCCUGAGCCAGAAAGGGCGCACGGUGCCAGCCCCUCUCGGGGACUCUGGGUGGAAUUCUCGGGUGCCAA | 0.282 |
| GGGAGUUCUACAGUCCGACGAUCAGCUGCAAGGGAGACCAACUCUUUCCCAGAAUCGCUAGGCAGAGCCCAGCAAUGAGGUCCCACCACACCAGGCCACACCCCCCCACUCUUCUGGAGGUGAAGGCCCAGGGUGGAAUUCUCGGGUGCCAA | 0.267 |
| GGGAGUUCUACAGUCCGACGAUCAAAAAGUAAAGAAGAAAGAUAACAUUAGUGUAUUUCUCCUGUGCUUGCCUUCUGAAGUGGCACAAACCUGUGUUUAUAUAUUUAAAAGAUACUCUAGGAUGAUCACUUGUUGGAAUUCUCGGGUGCCAA | 0.32 |
| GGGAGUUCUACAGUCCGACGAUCCCUCUGAGGCAGUGGACAGGAAGACUUCUCAUCCUUGAAUUCUAGCUCCCAUUCCAAACUGUUAGUCCCCAACCUUGUGGUCACAUCAGAGGUCAACAGCAGAACAGAGGUGGAAUUCUCGGGUGCCAA | 0.178 |
| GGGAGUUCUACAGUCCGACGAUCCUGCUAGACACAGCCAAGGCCAACGAGGCAAGCAGAAGCAGCGGCCGCAGCGAAGCUGCCGUUCAUGUGUUGGAGGCCAAAUGUGGCAAACCAACCCCAGGCCCACCCAGUGGAAUUCUCGGGUGCCAA | 0.219 |
| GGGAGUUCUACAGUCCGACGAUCAGGACACACUGGGUCACUGGCAUGGCCCAACAGCACAGCAAGAGGAGAGCUUUGUGCCUAUACCCAGUGUGUGGCUUUCCUCCAACCCCUUCCCAGACUUGUGAUCCAUUUGGAAUUCUCGGGUGCCAA | 0.643 |
| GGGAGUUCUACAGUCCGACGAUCCACAUCUUACCGAGGAAAGGAGGCAAGGAAGUGCCCUUUUGUGUCUCCUCAUUGUUCACAGCCUGUUGGUCUCGAACACUCAACAUAUGAUUGCUCGAUCACUUUAGAUAUGGAAUUCUCGGGUGCCAA | 0.295 |
| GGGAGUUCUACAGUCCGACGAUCUUAUUUAUUCAGGCUAUACCUACAAUAUGUGAAUCAAACUGUUUAAUGAAUCCUGGGACAUACUGAUGACUAUAAACUGGCCUCUCUGAGUCAUAGAAAAAUGGCCUUAUUGGAAUUCUCGGGUGCCAA | 0.334 |

Series 2 — method: competition with immobilised ligand; concentration: 1 µM
Compound: COc1ccc2c(c1)O[C@H](c1ccc(OC)c(OC)c1)C[C@@H]2NC(=O)C1(c2ccc3c(c2)OC(F)(F)O3)CC1
| target | read-out | remaining binding [%] |
| --- | --- | --- |
| Proto-oncogene tyrosine-protein kinase Src (SRC, Homo sapiens, UniProt P12931) | cell-free assay | 100 |
| Cyclin-dependent kinase 11A (CDK11A, Homo sapiens, UniProt Q9UQ88) | binding | 100 |
| Leucine-rich repeat serine/threonine-protein kinase 2 (LRRK2, Homo sapiens, UniProt Q5S007) | cell-free assay | 100 |
| Mitogen-activated protein kinase 6 (MAPK6, Homo sapiens, UniProt Q16659) | cell-free assay | 100 |
| AP2-associated protein kinase 1 (AAK1, Homo sapiens, UniProt Q2M2I8) | cell-free assay | 100 |
| Cyclin-dependent kinase 4, with cyclin D1 (CDK4, Homo sapiens, UniProt P11802) | cell-free assay | 100 |
| RAF proto-oncogene serine/threonine-protein kinase (RAF1, Homo sapiens, UniProt P04049) | cell-free assay | 100 |
| Mitogen-activated protein kinase 9 (MAPK9, Homo sapiens, UniProt P45984) | cell-free assay | 92 |
| TGF-beta receptor type-2 (TGFBR2, Homo sapiens, UniProt P37173) | cell-free assay | 100 |
| Serine/threonine-protein kinase ULK1 (ULK1, Homo sapiens, UniProt O75385) | cell-free assay | 88 |
| Epithelial discoidin domain-containing receptor 1 (DDR1, Homo sapiens, UniProt Q08345) | cell-free assay | 100 |

Series 3 — read-out: enzyme activity; mode: inhibitor; concentration: 0.5 µM; reference: control
Target: Calcium/calmodulin-dependent protein kinase type II subunit delta (CAMK2D, Homo sapiens, UniProt Q13557)
Chain of UniProt Q13557 (whole entry, looked up): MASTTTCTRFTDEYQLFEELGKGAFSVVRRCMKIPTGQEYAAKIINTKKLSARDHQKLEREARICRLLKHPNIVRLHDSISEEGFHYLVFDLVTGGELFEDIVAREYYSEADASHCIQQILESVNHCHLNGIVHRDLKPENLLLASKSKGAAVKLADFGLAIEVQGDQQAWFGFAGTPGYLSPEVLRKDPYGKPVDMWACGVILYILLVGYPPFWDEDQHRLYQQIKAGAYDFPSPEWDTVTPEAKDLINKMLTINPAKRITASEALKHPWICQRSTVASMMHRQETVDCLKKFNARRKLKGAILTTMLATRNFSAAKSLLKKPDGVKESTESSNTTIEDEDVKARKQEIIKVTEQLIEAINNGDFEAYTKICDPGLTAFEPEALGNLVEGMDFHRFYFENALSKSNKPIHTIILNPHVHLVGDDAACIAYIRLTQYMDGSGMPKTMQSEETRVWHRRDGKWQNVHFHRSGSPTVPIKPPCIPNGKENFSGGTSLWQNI
| Compound | remaining activity |
| --- | --- |
| Cc1ccc(Nc2nccc(N(C)c3ccc4c(C)n(C)nc4c3)n2)cc1S(N)(=O)=O | 99.4% |
| O=S(=O)(c1cccc2cnccc12)N1CCCNCC1 | 98.5% |
| CC(C)[C@H](CO)Nc1nc(Nc2cc(N)cc(Cl)c2)c2ncn(C(C)C)c2n1 | 87.3% |
| Cn1c2ccccc2c2c3c(c4c5ccccc5n(CCC#N)c4c21)CNC3=O | 20.3% |
| COc1cc2ncnc(Nc3ccc(Oc4ccccc4)cc3)c2cc1OC | 97.2% |
| N#CC(C#N)=C(N)/C(C#N)=C/c1ccc(O)cc1 | 91.1% |
| COc1cc2ncnc(Nc3ccc(F)c(Cl)c3)c2cc1OCCCN1CCOCC1 | 92.4% |
| CO[C@H]1C[C@@H]2CC[C@@H](C)[C@@](O)(O2)C(=O)C(=O)N2CCCC[C@H]2C(=O)O[C@H]([C@H](C)C[C@@H]2CC[C@@H](O)[C@H](OC)C2)CC(=O)[C@H](C)/C=C(\C)[C@@H](O)[C@@H](OC)C(=O)[C@H](C)C[C@H](C)/C=C/C=C/C=C/1C | 96.1% |
| Nc1[nH]nc2nc3ccccc3nc12 | 89.4% |
| Nc1ncnc2n[nH]c(Nc3ccc(F)cc3)c12 | 92.5% |
| OCC(O)CCON=C1C(c2c(O)[nH]c3ccccc23)=Nc2ccccc21 (stereo not shown) | 29.1% |
| COc1ccc(CNC(=O)Nc2ncc([N+](=O)[O-])s2)cc1 | 98.3% |
| COc1ccc(C(=O)Nc2sc3c(c2C(N)=O)CCCC3)cc1OC | 104% |
| Cc1cccc(-c2[nH]c(C(C)(C)C)nc2-c2ccc3c(c2)OCO3)n1 | 100% |

Mixed results
| Structure (SMILES) | species | dose | setting | measurement | result |
| --- | --- | --- | --- | --- | --- |
| CC(C)n1cnc(-c2ccc(F)cc2)c1-c1ncc(C(=O)Nc2ccc(N3CCN(C)CC3)cc2)[nH]1 | human, idiopathic pulmonary fibrosis | 30 mg once daily | trial, treatment-emergent | patients with Nasopharyngitis | 0% |

For quick reference, copied from above (series 1):
| Oligonucleotide | RBNS enrichment (R) |
| --- | --- |
| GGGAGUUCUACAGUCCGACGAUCAGGACACACUGGGUCACUGGCAUGGCCCAACAGCACAGCAAGAGGAGAGCUUUGUGCCUAUACCCAGUGUGUGGCUUUCCUCCAACCCCUUCCCAGACUUGUGAUCCAUUUGGAAUUCUCGGGUGCCAA | 0.643 |
| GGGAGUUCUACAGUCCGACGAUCCACAUCUUACCGAGGAAAGGAGGCAAGGAAGUGCCCUUUUGUGUCUCCUCAUUGUUCACAGCCUGUUGGUCUCGAACACUCAACAUAUGAUUGCUCGAUCACUUUAGAUAUGGAAUUCUCGGGUGCCAA | 0.295 |
| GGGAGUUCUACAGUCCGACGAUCUUAUUUAUUCAGGCUAUACCUACAAUAUGUGAAUCAAACUGUUUAAUGAAUCCUGGGACAUACUGAUGACUAUAAACUGGCCUCUCUGAGUCAUAGAAAAAUGGCCUUAUUGGAAUUCUCGGGUGCCAA | 0.334 |
